{"data": "Measurements pooled from the literature", "note": "Numbered parts are unrelated; each lists some results of a single study. Substitutions count along the parent as printed."}
{"data": "Sample 1", "target": "Ras GTPase-activating protein-binding protein 1, full length (G3BP1, Homo sapiens, UniProt Q13283)", "method": "RNA Bind-n-Seq", "form": "RNA", "matrix": "in vitro", "tested at": "200 nM", "notes": "whole 134-nt RNA, ends assumed", "together with": "150 mM LiCl", "relative to": "input library", "direction": "higher = stronger binding", "each molecule": "7-deaza-guanosine replaces G", "constant ends, left off below": "GGGAGUUCUACAGUCCGACGAUC … UGGAAUUCUCGGGUGUCAAGG", "UniProt Q13283, sequence (whole entry, looked up)": "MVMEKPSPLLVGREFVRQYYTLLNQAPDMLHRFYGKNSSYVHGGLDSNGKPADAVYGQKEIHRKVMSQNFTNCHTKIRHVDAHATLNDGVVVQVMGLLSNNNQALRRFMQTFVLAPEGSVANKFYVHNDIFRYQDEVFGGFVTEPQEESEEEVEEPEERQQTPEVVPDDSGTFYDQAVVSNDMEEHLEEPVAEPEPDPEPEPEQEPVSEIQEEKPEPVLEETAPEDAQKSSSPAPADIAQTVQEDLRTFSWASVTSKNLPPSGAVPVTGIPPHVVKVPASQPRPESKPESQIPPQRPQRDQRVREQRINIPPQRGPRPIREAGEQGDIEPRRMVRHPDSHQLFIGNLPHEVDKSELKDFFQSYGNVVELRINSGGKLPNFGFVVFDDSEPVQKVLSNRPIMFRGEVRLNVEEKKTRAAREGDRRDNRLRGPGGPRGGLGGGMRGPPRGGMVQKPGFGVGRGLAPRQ"}
{"Oligonucleotide": "GUCCUGUGCUACACAUCGUAUGUACCGAAUCGGGGAAAAAAAGGGGUUUGGGGUGGGGAAAGUAUUAUGUUACGCCGUUCGGAUCUGCAC", "log2 enrichment": -1.25}
{"Oligonucleotide": "CAAGUCCUGUGCUACACAUCGUAUGUACCGAAUCGGGAAAGGGAAAGGAAAGGGGAAAGUAUUAUGUUACGCCGUUCGGAUCUGCACUUC", "log2 enrichment": -0.00248}
{"Oligonucleotide": "UGGGAGGUGUAUUUUGUUUAUUUUUUUAGCUCAUUUCCAGGGGUGGGAAUUUUUUUUUAAUAUGUGUCAUGAAUAAAGUUGUUUUUGAAA", "log2 enrichment": 0.0849}
{"Oligonucleotide": "GUCCUGUGCUACACAUCGUAUGUACCGAAUCGGGAAAAAGGGAAAAAAAGGGAAAGGGAAAGUAUUAUGUUACGCCGUUCGGAUCUGCAC", "log2 enrichment": -0.17}
{"Oligonucleotide": "AAGUCCUGUGCUACACAUCGUAUGUACCGAAUCGGGAAAAGGAAAAGGGAAAAGGGGAAAGUAUUAUGUUACGCCGUUCGGAUCUGCACU", "log2 enrichment": 0.49}
{"Oligonucleotide": "CACAGACAACACGCACCCACACAGACACUGAGGGAAGGGGUUGGGAUGGGGACAGGGUGCACAGCAGGGCGGGGUAGGACCCCAGCCCCU", "log2 enrichment": 0.41}
{"Oligonucleotide": "UCCUGUGCUACACAUCGUAUGUACCGAAUCGGGGUUUUUGGGGUUUUUUUGGGGUGGGGAAAGUAUUAUGUUACGCCGUUCGGAUCUGCA", "log2 enrichment": 0.735}
{"Oligonucleotide": "CACAGACAAAAAGCACCCACACAGACACAGAGGGAAGGGGUUGGGAUGGGGACAGGGUGCACAGCAGGGCGGGGUAGGACCCCAGCCCCU", "log2 enrichment": 0.326}
{"data": "Sample 2", "target": "Sal-like protein 4, full length isoform B (SALL4, Homo sapiens, UniProt Q9UJQ4-2, residues 1-616)", "method": "universal PBM", "form": "double-stranded DNA, one strand shown", "matrix": "in vitro", "tested at": "not given", "notes": "8-mer, flanks averaged, mean of replicates", "direction": "higher = stronger binding"}
{"Oligonucleotide": "AAATTGCG", "E-score": 0.211}
{"Oligonucleotide": "ACGGACCA", "E-score": -0.086}
{"Oligonucleotide": "TAGCGTCA", "E-score": 0.0106}
{"Oligonucleotide": "ACCAACAG", "E-score": -0.208}
{"Oligonucleotide": "AAGATAAA", "E-score": 0.288}
{"Oligonucleotide": "ATTGTTCA", "E-score": 0.243}
{"Oligonucleotide": "CGGGACCG", "E-score": -0.291}
{"Oligonucleotide": "CGTGGTCA", "E-score": -0.309}
{"Oligonucleotide": "GGATCGCC", "E-score": -0.29}
{"Oligonucleotide": "ATTGGTCG", "E-score": 0.0626}
{"Oligonucleotide": "ATACCCAT", "E-score": 0.197}
{"Oligonucleotide": "AAGTCCAT", "E-score": -0.0257}
{"Oligonucleotide": "GCGTAGAA", "E-score": -0.0278}
{"Oligonucleotide": "ATCGGAAA", "E-score": 0.178}
{"Oligonucleotide": "CCTTCGCA", "E-score": 0.00361}
{"Oligonucleotide": "CTGAAGGC", "E-score": -0.203}
{"Oligonucleotide": "AGCGAACC", "E-score": -0.132}
{"Oligonucleotide": "GAAAGCTA", "E-score": -0.0536}
{"data": "Sample 3", "target": "HLF, bZIP domain (human)", "method": "DHFR protein complementation", "matrix": "yeast", "notes": "single substitutions, most at no-binding floor", "relative to": "wild-type JUN-FOS pair", "direction": "higher = stronger binding", "starting sequence": "JUN, bZIP domain (human); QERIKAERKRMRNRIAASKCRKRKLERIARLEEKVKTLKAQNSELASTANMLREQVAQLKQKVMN; partner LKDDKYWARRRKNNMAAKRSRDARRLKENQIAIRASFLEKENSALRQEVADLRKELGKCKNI"}
{"Variant": "A49E", "binding fitness": "-1.5 natural log"}
{"Variant": "S47C", "binding fitness": "-1.4 natural log"}
{"Variant": "E54L", "binding fitness": "-1.5 natural log"}
{"Variant": "K36T", "binding fitness": "-1.46 natural log"}
{"Variant": "S43D", "binding fitness": "-1.37 natural log"}
{"Variant": "K36M", "binding fitness": "-1.27 natural log"}
{"Variant": "Q58P", "binding fitness": "-1.5 natural log"}
{"Variant": "M51G", "binding fitness": "-1.45 natural log"}
{"Variant": "E33M", "binding fitness": "-1.3 natural log"}
{"Variant": "N42F", "binding fitness": "-1.47 natural log"}
{"Variant": "V56C", "binding fitness": "-1.32 natural log"}
{"data": "Sample 4", "target": "CCNA2, cyclin fold, Cln2 fusion (human)", "method": "yeast growth competition, sequencing", "matrix": "yeast", "notes": "strong parent motif", "relative to": "not given", "direction": "higher = stronger binding", "starting sequence": "BRCA2 docking peptide (human); PSIKRNLLNEFDR; partner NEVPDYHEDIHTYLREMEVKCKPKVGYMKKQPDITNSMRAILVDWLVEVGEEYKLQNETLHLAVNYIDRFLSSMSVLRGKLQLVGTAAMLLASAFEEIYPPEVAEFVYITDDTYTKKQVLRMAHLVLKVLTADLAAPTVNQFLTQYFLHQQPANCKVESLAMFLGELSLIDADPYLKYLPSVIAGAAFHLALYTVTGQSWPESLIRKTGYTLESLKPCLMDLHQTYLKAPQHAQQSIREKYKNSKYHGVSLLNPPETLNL"}
{"Variant": "PSIKYNLLNEFDR [R5Y]", "normalised enrichment score": 1.16}
{"Variant": "PSIKRNLLNEPDR [F11P]", "normalised enrichment score": 1.05}
{"Variant": "PSIKNNLLNEFDR [R5N]", "normalised enrichment score": 0.494}
{"Variant": "PSIKRMLLNEFDR [N6M]", "normalised enrichment score": 1.64}
{"Variant": "PSIKRNLLNEFDF [R13F]", "normalised enrichment score": 4.32}
{"Variant": "PSIKRYLLNEFDR [N6Y]", "normalised enrichment score": 0.933}
{"Variant": "PSIKRNLLNEFKR [D12K]", "normalised enrichment score": 3.22}
{"Variant": "PSIKRNLLVEFDR [N9V]", "normalised enrichment score": 5.16}
{"Variant": "PSIKRNLLAEFDR [N9A]", "normalised enrichment score": 6.04}
{"Variant": "PSIKTNLLNEFDR [R5T]", "normalised enrichment score": 1.26}
{"Variant": "PSIKRNPLNEFDR [L7P]", "normalised enrichment score": 0.216}
{"Variant": "PSWKRNLLNEFDR [I3W]", "normalised enrichment score": 5.2}
{"Variant": "PSIKRNQLNEFDR [L7Q]", "normalised enrichment score": 1.07}
{"Variant": "PSIKRWLLNEFDR [N6W]", "normalised enrichment score": 1.42}
{"Variant": "PSIKRNLLNFFDR [E10F]", "normalised enrichment score": 2.66}
{"Variant": "PSIKRNELNEFDR [L7E]", "normalised enrichment score": -0.923}
{"Variant": "PSIKRNLLNEFRR [D12R]", "normalised enrichment score": 3.66}
{"Variant": "GSIKRNLLNEFDR [P1G]", "normalised enrichment score": 4.74}
{"Variant": "TSIKRNLLNEFDR [P1T]", "normalised enrichment score": 4.91}
{"Variant": "PSINRNLLNEFDR [K4N]", "normalised enrichment score": 3}
{"Variant": "PVIKRNLLNEFDR [S2V]", "normalised enrichment score": 3.35}
{"Variant": "PSIKRNLVNEFDR [L8V]", "normalised enrichment score": 4.44}
{"Variant": "PSIKRNLLNEFDH [R13H]", "normalised enrichment score": 4.8}
{"data": "Sample 5", "target": "ABI1, truncated, D143A, DHFR fusion (Arabidopsis thaliana)", "method": "DHFR PCA, deep sequencing", "matrix": "yeast", "notes": "methotrexate growth selection, single substitutions", "together with": "(+)-ABA 2500 µM", "relative to": "wild-type fitted maximum", "direction": "higher = stronger binding", "starting sequence": "PYL1, truncated, DHFR fusion (Arabidopsis thaliana); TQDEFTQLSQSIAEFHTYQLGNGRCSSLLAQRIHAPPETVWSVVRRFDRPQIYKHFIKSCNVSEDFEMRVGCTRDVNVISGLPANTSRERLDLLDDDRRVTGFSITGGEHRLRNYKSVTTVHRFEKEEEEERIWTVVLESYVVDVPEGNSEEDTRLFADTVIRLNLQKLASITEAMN; partner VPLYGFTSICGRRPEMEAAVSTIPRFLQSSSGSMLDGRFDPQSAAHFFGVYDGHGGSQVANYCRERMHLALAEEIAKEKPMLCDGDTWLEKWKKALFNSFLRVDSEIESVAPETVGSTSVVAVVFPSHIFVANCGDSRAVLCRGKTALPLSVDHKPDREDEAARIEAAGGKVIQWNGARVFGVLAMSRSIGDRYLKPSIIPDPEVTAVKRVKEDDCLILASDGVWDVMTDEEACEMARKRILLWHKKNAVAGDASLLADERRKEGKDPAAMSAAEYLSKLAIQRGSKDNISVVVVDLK"}
{"Variant": "K58W", "relative binding score": "84%"}
{"Variant": "T173M", "relative binding score": "92.9%"}
{"Variant": "T6Q", "relative binding score": "106%"}
{"Variant": "S117G", "relative binding score": "85%"}
{"Variant": "K168C", "relative binding score": "96.8%"}
{"Variant": "L91A", "relative binding score": "47.6%"}
{"Variant": "L156S", "relative binding score": "96.1%"}
{"Variant": "F15E", "relative binding score": "85.2%"}
{"Variant": "G21W", "relative binding score": "96.4%"}
{"Variant": "E67I", "relative binding score": "105%"}
{"Variant": "I162N", "relative binding score": "77.7%"}
{"Variant": "E174A", "relative binding score": "91.8%"}
{"Variant": "T101D", "relative binding score": "0.11%"}
{"Variant": "V121K", "relative binding score": "-4.27%"}
{"note": "For quick reference, copied from above (sample 4):"}
{"Variant": "PSIKRNELNEFDR [L7E]", "normalised enrichment score": -0.923}
{"Variant": "PSIKRNLLNEFRR [D12R]", "normalised enrichment score": 3.66}
{"Variant": "GSIKRNLLNEFDR [P1G]", "normalised enrichment score": 4.74}
{"Variant": "TSIKRNLLNEFDR [P1T]", "normalised enrichment score": 4.91}
{"Variant": "PSINRNLLNEFDR [K4N]", "normalised enrichment score": 3}
{"Variant": "PVIKRNLLNEFDR [S2V]", "normalised enrichment score": 3.35}
